Measured values gathered from unrelated publications.
Numbered parts are unrelated; each lists some results of a single study.

Series 1
Target: Ras GTPase-activating protein-binding protein 1, full length (G3BP1, Homo sapiens, UniProt Q13283)
Sequence of UniProt Q13283 (whole entry, looked up): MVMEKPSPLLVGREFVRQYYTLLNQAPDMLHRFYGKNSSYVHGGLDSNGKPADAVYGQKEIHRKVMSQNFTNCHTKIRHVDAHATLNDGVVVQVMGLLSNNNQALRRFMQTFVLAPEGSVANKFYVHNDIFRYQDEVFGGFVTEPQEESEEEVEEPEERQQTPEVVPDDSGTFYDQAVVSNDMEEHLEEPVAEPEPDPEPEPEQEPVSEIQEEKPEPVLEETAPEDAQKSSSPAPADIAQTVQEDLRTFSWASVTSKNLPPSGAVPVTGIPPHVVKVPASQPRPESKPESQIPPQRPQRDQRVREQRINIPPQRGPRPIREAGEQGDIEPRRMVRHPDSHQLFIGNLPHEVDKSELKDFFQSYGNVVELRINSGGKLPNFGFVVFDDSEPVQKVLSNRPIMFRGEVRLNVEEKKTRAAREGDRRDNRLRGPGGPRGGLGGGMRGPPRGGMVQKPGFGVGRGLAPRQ
Method: RNA Bind-n-Seq
Molecule type: RNA
Matrix: in vitro
Concentration: 200 nM
Notes: whole 134-nt RNA, ends assumed
Added: 150 mM KCl
Relative to: input library
Direction: higher = stronger binding
Quantity: log2 enrichment
Constant ends, left off below: GGGAGUUCUACAGUCCGACGAUC … UGGAAUUCUCGGGUGUCAAGG
UCCUGUGCUACACAUCGUAUGUACCGAAUCAAAUUUUUAAACCCCCAAAUUUUUUUAAAAAAGUAUUAUGUUACGCCGUUCGGAUCUGCA: 0.267
UCCUCAAGUCCUGUGCUACACAUCGUAUGUACCGAAUCGGAGGAGGGAGGGGAAAGUAUUAUGUUACGCCGUUCGGAUCUGCACUUCCAG: 0.371
ACCAUGCAGGUGGGCAUCUUUGGGAAGUGGGGCAAGGGGGGGAUAGGGAGGGGGGUAACACUUUGGGAACAGGUGGUCCCAGUUCGUUUC: 1.01
UAACUUUAGGGGAGGAUCUGAUGGAUAUGGCAGUGGACGUGGAUUUGGGGAUGGCUAUAAUGGGUAUGGAGGAGGACCUGGAGGUGGCAA: 0.614
UCAAGUCCUGUGCUACACAUCGUAUGUACCGAAUCGGGUGGGUGGGAAAAAGGGAAAGUAUUAUGUUACGCCGUUCGGAUCUGCACUUCC: 0.863
CAAGUCCUGUGCUACACAUCGUAUGUACCGAAUCGGGUUUGGGUGGGUUUUUGGGAAAGUAUUAUGUUACGCCGUUCGGAUCUGCACUUC: 0.464
UGGGAGGUCGAUUUUGUUUAUUUUUUUAGCUCAUUUCCAGGGGUGGGAAUUUUUUUUUAAUAUGUGUCAUGAAUAAAGUUGUUUUUGAAA: -0.502
UCAAGUCCUGUGCUACACAUCGUAUGUACCGAAUCGGGGAAGGAAGGGGAAGGGGAAAGUAUUAUGUUACGCCGUUCGGAUCUGCACUUC: 0.741
CACAGACAACACGCACCCACCCAGACACAGAGGGAAGGGGUUGGGAUGGGGACAGGGUGCACAGCAGGGCGGGGUAGGACCCCAGCCCCU: 1.94

Series 2
Target: RNA binding protein fox-1 homolog 2, RRM domain, GST-SBP tag (RBFOX2, Homo sapiens, UniProt O43251-10, residues 100-194)
Method: RNA Bind-n-Seq
Molecule type: RNA
Matrix: in vitro
Concentration: 365 nM
Notes: natural RNA segment, single round, ends assumed
Relative to: no-protein control
Direction: higher = stronger binding
Quantity: RBNS enrichment (R)
Constant ends, left off below: GGGAGUUCUACAGUCCGACGAUC … UGGAAUUCUCGGGUGCCAA
Construct (chain): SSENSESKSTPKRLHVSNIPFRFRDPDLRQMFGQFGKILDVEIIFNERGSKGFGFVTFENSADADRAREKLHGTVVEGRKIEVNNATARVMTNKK
UCCUCAGGCAGUGCCCUUCCUCCCCACUCUUCCUCCCCACAGACAGGCCUCUGCUCCUGCGCCUGCCUGCAUGCUCUCUCUUGUCGUUGGAGCCUGGAGCCUUGCUCUCU: 2.17
GCUUCCUAGUUUACAGCAUGAUGCAAAUGAUUUUCUAACUUAGUGUUAGGAGAAAAUAUUUUCCAUCUUUUAACCUCUUAGUUGUCUAAGAGUUAAAUAUUACUGAAUUU: 0.504
UGGUAAUAUUCUAUCCUUAUGACACUAUUGCAACCAAAUUGGCUUUACCAUCUUGGCUUUAGUAGGUAUAGAAGAAAGUGGAUUACCAUCUUUAUUUUGUAAUGUGUUAA: 0.746
GGGCACACCCAGGGCCACCUGGGUGUAGGAGAGCUCUGGUGGCCCCUCCGUAAACUCAGGAAGUGUCAGGUGAUUUCCUAGGGAGAGGUUCCCAGUCCCAGCAGGCAGAA: 0.694
AGAAAGAUUUUUUUUUAAGUAAACACCUUUCAAUCCCCAACACAAGCUGCUUCACAACUCCAGGCUAGAAGGCAGGAGAGCGAUCUGAUGUGUUUCUUUCAUUUGCCAGA: 0.517
UUUUAAAGCAUUCUUUGAUACUGUUGCUUUUGCAAUAAAUAUGGAUAAUCUUGGUUAUAAGGGAGUUAAAACAAUGCUGUAAUAAAUAAAGUGCUUCAUGUGAUCAAAAU: 0.441
GCCACCACUCCUGUCAGCAAGUGCUCAGAGCAGGUGGGAGGCACAGAUUGUCCGUGGGAGGGCUCCAGUGUCUGGGAAGAGGGCAGGCGGCCCCCAUGAAUGUCCUCGGA: 1.09
GAGCUGCCUCUGCCCCUGGGCAAGGAAGCGAGGCCCUCUGGGAGGAGGGUGCUUAGCUCCAGAGCAGGAUGGGACUUCCCCAGGCAGGAAGCACUUGAUGGAGAGCUGCC: 0.276

Series 3
Target: Interferon regulatory factor 3, full length, phosphomimetic (IRF3, Homo sapiens, UniProt Q14653, residues 1-427, S386D/S396D/S398D/S402D/T404D/S405D)
Method: protein-binding microarray
Molecule type: double-stranded DNA, one strand shown
Matrix: in vitro
Concentration: 2540 nM top
Notes: 60-bp whole probe
Added: salmon DNA 0.4 mg/ml
Relative to: random background probes
Direction: higher = stronger binding
Quantity: fitted relative affinity
Constant ends, left off below: GCCTAGCAC … GTCTTGATTCGCTTGACGCTGCTG
Residues (chain): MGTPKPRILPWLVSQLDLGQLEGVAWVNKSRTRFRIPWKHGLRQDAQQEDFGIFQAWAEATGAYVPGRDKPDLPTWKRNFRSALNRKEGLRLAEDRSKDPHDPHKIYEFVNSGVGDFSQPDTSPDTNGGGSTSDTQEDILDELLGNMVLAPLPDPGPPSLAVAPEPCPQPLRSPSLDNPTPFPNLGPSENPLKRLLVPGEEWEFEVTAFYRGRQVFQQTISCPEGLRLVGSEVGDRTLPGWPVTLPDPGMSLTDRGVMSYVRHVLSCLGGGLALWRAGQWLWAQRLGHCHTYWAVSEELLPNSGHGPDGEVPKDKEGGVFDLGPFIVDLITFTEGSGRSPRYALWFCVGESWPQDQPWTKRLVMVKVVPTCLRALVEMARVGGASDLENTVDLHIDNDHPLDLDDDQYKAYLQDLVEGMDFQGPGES
TTAGGTATCGATTATCGGTTAGTGCTA: 2.15 z-score
TTAGAACTGGGGTCTGGATTAGTGCTA: -0.792 z-score
GACGAATTCAGTTTCGAGACGTGCTAG: 3.26 z-score
TTAGATCCCAGTCTCGATTAGTGCTAG: 1.16 z-score
TCATTTTTAGAAATTTTTACTGTGCTA: 1.42 z-score
GTGTGTCTGATTATTTACATGTGCTAG: 0.766 z-score
AGACCTTGCTTTATGTGTAGGTGCTAG: -0.34 z-score
TCATTTCTATCTCTGTTACTGTGCTAG: 2.87 z-score
TTAGATTCCAGTTGCGATTAGTGCTAG: 2.48 z-score
TCACCTCTGGGCTGTTTGACTGTGCTA: -0.184 z-score
TTAGATATCGGGTTTCGAATAGTGCTA: 1.45 z-score
TCATGTCTCCCCCATCTTACTGTGCTA: 0.9 z-score
GACGATCTCAGTAACGAGACGTGCTAG: 0.39 z-score
TTACGACTGGGTTTCGGTTAGTGCTAG: 3.29 z-score
TTAGATCTCGGTCTCGGTTAGTGCTAG: 0.61 z-score
TTAGGTATCCTTTTCCTTTAGTGCTAG: 8.36 z-score
AAGAGTTTCCCTCCCTGAGTGTGCTAG: 4.34 z-score
TTAGAACTGAGACAGGATTAGTGCTAG: -0.294 z-score
CCGGGTTTCACCATGTTGGCGTGCTAG: 0.805 z-score

Series 4
Target: Histone acetyltransferase KAT6A, winged helix 1, GST fusion (KAT6A, Homo sapiens, UniProt Q92794, residues 1-85)
Method: protein binding microarray
Molecule type: double-stranded DNA, one strand shown
Matrix: in vitro
Concentration: not given
Notes: 8-mer, flanks averaged, mean of 2 arrays, mostly near background
Relative to: not given
Direction: higher = stronger binding
Quantity: E-score
Target sequence (chain): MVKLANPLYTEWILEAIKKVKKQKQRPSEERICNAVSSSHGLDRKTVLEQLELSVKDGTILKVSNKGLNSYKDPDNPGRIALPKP
AGGTCGCG: 0.17
GACAGAAC: -0.0263
ACAGTTAA: -0.136
TACCATCA: -0.137
ACTACAAC: -0.0344
AAGGTTAA: -0.0575
GAGCTCTA: -0.0446
CCAAGTAA: -0.0428
GCTTGGCC: 0.0849
ACAAAAGT: -0.287
ACATCGAT: -0.147
CTCACCAC: -0.172
CGGAAGGA: 0.043
CGTCCGTA: 0.301
CATCACAA: -0.151
TCGTTCCA: -0.183
TAGGATGA: 0.0303
CAATTGTA: -0.0513
CCATAGGA: -0.19
TTCGCCAA: -0.129
AGAGCGAC: 0.0948
ACCAATAC: -0.00698
AGATTATC: -0.0977
CCCGGACG: 0.277
AGCATAGC: -0.0414

Excerpt of the above (series 4):
CATCACAA: -0.151
TCGTTCCA: -0.183
TAGGATGA: 0.0303
CAATTGTA: -0.0513
CCATAGGA: -0.19
TTCGCCAA: -0.129
AGAGCGAC: 0.0948
ACCAATAC: -0.00698
AGATTATC: -0.0977
CCCGGACG: 0.277
